Measured values pooled from the literature.
Protocols differ between the studies behind these lines. ± marks the error that the study gave.

For O=C(Nc1c2c(cc3c1CCC3)CCC2)NS(=O)(=O)/C=C/c1nccs1, the aqueous solubility was under 5 µg/mL (ammonium acetate buffer; 24 h, pH 4.50, 37°C).
For Cc1cc(-c2cn[nH]c2-c2cccc(OCc3cccc(C#N)c3)c2)cc(C)n1, the aqueous solubility was 128 µg/mL.
O=[N+]([O-])c1cn2c(n1)OC[C@@H](OCc1ccc(N3CCCCC3)c(F)c1)C2 has an aqueous solubility of 5.7 µg/mL (aqueous buffer; pH 7.4).
C=CC(=O)NC1CCN(c2ncc3ncnc(Nc4ccc(Oc5ccc6c(c5)ncn6C)c(C)c4)c3n2)CC1 has an aqueous solubility of under 1 µg/mL (shake flask; aqueous buffer; 24 h, 37 °C, across pH 4.5 to 7.4).
The aqueous solubility of CN(C)C/C=C/C(=O)Nc1cc2c(Nc3ccc(F)c(Cl)c3)ncnc2cc1O[C@H]1CCOC1 is reported as 35.4 ± 21.3 µM (water; 24 h).
O=[N+]([O-])c1cn2c(n1)OC[C@@H](OCc1ccc(N3CCSCC3)cc1)C2 gave an aqueous solubility of 7.7 µg/mL (aqueous buffer; pH 7.4).
O=C1N(Cc2ccccc2Cl)c2ccccc2C12NN=C(c1ccccc1)S2 (stereo not shown) gave an aqueous solubility of under 1000 µg/mL (aqueous medium).
CCCCCCCCCCCC1=C(O)C(=O)C=C(O)C1=O has an aqueous solubility of under 250 µM (pH 7).
C[C@H](O)[C@H](O)[C@H]1CNc2nc(N)[nH]c(=O)c2N1 gave an aqueous solubility of about 20000 µg/mL (estimated).
O=[N+]([O-])c1cn2c(n1)OC[C@@H](OCc1ccc(OC(F)(F)F)cc1)C2 has an aqueous solubility of under 10 µg/mL (aqueous buffer; pH 7.4).
